Experimental data collected from several papers.
Each numbered part is a random draw from the data of one study; scales do not carry over between parts.
Chain of UniProt Q99640 (whole entry, looked up): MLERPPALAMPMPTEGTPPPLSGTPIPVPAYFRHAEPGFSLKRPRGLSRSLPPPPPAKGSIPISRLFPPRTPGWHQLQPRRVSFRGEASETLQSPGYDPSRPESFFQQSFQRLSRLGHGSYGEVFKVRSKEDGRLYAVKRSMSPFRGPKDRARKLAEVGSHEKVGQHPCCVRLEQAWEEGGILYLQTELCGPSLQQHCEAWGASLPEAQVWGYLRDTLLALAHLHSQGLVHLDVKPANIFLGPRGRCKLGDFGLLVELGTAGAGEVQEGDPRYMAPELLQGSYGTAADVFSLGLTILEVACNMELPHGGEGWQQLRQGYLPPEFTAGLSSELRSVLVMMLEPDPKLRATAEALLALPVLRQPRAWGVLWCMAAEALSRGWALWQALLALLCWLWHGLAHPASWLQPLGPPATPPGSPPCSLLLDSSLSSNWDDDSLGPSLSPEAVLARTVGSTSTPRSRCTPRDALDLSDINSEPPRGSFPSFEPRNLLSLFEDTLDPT
Chain of UniProt P36894 (whole entry, looked up): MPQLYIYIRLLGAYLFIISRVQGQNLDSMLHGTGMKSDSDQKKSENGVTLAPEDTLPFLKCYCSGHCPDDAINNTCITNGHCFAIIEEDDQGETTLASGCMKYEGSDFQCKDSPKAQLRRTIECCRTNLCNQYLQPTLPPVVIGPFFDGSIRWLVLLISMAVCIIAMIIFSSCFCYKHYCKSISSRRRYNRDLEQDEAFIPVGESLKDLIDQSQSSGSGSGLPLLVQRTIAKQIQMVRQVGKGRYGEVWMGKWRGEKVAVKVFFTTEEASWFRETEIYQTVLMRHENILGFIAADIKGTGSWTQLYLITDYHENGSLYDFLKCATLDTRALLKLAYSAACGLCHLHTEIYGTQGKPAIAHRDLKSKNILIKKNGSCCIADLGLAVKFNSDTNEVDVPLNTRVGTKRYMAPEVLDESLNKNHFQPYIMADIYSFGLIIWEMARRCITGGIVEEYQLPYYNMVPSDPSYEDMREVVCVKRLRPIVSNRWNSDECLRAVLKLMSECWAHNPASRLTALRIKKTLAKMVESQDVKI
Chain of UniProt P29317 (whole entry, looked up): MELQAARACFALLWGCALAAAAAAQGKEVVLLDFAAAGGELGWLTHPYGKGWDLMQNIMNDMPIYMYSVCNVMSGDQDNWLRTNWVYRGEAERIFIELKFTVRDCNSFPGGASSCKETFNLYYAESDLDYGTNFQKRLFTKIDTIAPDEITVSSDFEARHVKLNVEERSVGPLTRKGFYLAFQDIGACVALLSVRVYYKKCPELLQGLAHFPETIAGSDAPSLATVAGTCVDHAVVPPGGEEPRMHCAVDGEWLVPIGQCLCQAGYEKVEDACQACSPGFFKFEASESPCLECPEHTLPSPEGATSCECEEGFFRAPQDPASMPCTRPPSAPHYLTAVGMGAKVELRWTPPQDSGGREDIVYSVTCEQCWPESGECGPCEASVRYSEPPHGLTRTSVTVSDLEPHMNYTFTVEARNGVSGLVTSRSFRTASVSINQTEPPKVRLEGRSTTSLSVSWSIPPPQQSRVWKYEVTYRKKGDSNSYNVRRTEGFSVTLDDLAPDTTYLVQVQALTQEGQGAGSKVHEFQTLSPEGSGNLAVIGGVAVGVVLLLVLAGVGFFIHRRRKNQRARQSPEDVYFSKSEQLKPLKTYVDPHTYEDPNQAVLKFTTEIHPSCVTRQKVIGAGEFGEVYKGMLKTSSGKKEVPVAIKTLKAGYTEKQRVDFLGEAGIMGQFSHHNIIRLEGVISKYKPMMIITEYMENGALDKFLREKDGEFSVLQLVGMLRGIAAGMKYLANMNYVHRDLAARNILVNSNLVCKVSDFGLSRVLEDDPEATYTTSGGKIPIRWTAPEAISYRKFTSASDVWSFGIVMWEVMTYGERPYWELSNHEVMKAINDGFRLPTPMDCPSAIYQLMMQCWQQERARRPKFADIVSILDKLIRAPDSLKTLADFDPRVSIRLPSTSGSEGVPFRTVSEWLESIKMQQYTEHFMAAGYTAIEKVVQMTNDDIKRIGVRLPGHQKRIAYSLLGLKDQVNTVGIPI

Set 1
Structure (SMILES): COc1ccc2cc(OCC3(C(=O)O)CN(C(=O)c4ccc(F)cc4)C3)ccc2c1
Method: competition with immobilised ligand
Concentration: 1 µM
target	assay	remaining binding [%]
Receptor-type tyrosine-protein kinase FLT3 (FLT3, Homo sapiens, UniProt P36888, N841I)	cell-free assay	76
ALK tyrosine kinase receptor (ALK, Homo sapiens, UniProt Q9UM73)	cell-free assay	79
Angiopoietin-1 receptor (TEK, Homo sapiens, UniProt Q02763)	cell-free assay	100
5'-AMP-activated protein kinase catalytic subunit alpha-2 (PRKAA2, Homo sapiens, UniProt P54646)	binding	28
Mitogen-activated protein kinase kinase kinase 5 (MAP3K5, Homo sapiens, UniProt Q99683)	cell-free assay	98
Membrane-associated tyrosine- and threonine-specific cdc2-inhibitory kinase (PKMYT1, Homo sapiens, UniProt Q99640)	cell-free assay	100
Mitogen-activated protein kinase 6 (MAPK6, Homo sapiens, UniProt Q16659)	cell-free assay	88
Protein-tyrosine kinase 2-beta (PTK2B, Homo sapiens, UniProt Q14289)	cell-free assay	100
Tyrosine-protein kinase Tec (TEC, Homo sapiens, UniProt P42680)	binding	100
Mitogen-activated protein kinase 3 (MAPK3, Homo sapiens, UniProt P27361)	cell-free assay	100
Serine/threonine-protein kinase 17B (STK17B, Homo sapiens, UniProt O94768)	cell-free assay	100
Death-associated protein kinase 2 (DAPK2, Homo sapiens, UniProt Q9UIK4)	cell-free assay	98
Bone morphogenetic protein receptor type-1A (BMPR1A, Homo sapiens, UniProt P36894)	binding	88
Phosphatidylinositol 4,5-bisphosphate 3-kinase catalytic subunit alpha isoform (PIK3CA, Homo sapiens, UniProt P42336, H1047L)	cell-free assay	100
SRSF protein kinase 3 (SRPK3, Homo sapiens, UniProt Q9UPE1)	cell-free assay	100
Protein-tyrosine kinase 6 (PTK6, Homo sapiens, UniProt Q13882)	cell-free assay	99
Ephrin type-A receptor 2 (EPHA2, Homo sapiens, UniProt P29317)	cell-free assay	100
Beta-adrenergic receptor kinase 1 (GRK2, Homo sapiens, UniProt P25098)	cell-free assay	72

Set 2
Target: Calcium/calmodulin-dependent protein kinase type II subunit alpha (CAMK2A, Homo sapiens, UniProt Q9UQM7)
Chain of UniProt Q9UQM7 (whole entry, looked up): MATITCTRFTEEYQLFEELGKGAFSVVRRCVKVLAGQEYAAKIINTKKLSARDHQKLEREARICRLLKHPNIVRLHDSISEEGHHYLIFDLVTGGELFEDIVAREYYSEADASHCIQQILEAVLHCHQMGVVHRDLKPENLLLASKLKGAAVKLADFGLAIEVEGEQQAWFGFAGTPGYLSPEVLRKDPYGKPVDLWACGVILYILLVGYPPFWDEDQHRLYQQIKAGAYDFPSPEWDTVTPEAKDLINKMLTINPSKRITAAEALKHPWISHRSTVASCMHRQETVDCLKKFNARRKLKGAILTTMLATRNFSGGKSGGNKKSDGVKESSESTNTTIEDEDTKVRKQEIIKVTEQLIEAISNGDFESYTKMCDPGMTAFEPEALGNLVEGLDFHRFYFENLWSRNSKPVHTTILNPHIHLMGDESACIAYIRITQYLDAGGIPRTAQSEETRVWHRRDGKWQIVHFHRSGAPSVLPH
Read-out: enzyme activity
Action: inhibitor
Concentration: 10 µM
SMILES	inhibition [%]
CC12CCC(C1)C(C)(C)C2O (stereo not shown)	-33
O=C(O)CNCC(=O)O	2
O=C(/C=C/C=C/c1ccc2c(c1)OCO2)N1CCCCC1	-14
CC(C)Nc1nc2cc(Cl)c(Cl)cc2n1[C@H]1O[C@@H](CO)[C@H](O)[C@@H]1O	-10

Set 3
Cell line: mouse MPNST tumor cells
Method: high-content nuclear imaging
Measured: cell number
Concentration: 10 µM
Time: 12 h
Setting: mean of 2 replicates
Reference: plate mean
Direction: higher = more cells
SMILES	nuclei count
O=C(O)Cc1ccccc1Nc1c(Cl)cccc1Cl	1.35 z-score
CC(=O)Nc1ccc(CC(=O)O)cc1	0.231 z-score
NC(=O)c1ncn([C@@H]2O[C@H](CO)[C@@H](O)[C@H]2O)c1N	0.865 z-score
CC1=C(C)C(=O)C(C(C)(C)CC(=O)N(CCCCSC[C@H]2O[C@@H](n3cnc4c(N)ncnc43)[C@H](O)[C@@H]2O)Cc2cccc(-c3ccc(Cl)cc3)c2)=C(C)C1=O	1.1 z-score
COC(=O)C1=C(C)NC(C)=C(C(=O)OCCSc2ccccc2)C1C (stereo not shown)	3.4 z-score

Set 4
Read-out: AlphaScreen signal
Method: AlphaScreen counter screen
Matrix: His6 peptide without bromodomain
Concentration: 50 µM
Setting: assay interference check
Compound	inhibition [%]
Nc1ncc(-c2cccnc2)nc1-c1ccc(O)cc1	17.6
NC(=O)Nc1sc(-c2ccccc2)cc1C(N)=O	12.9
COc1ccc(-c2cc3nccn3c(Nc3ncccc3C(N)=O)n2)cc1OC	12.6
CC(=O)Nc1cccc(-n2c(=O)n(C3CC3)c(=O)c3c(Nc4ccc(I)cc4F)n(C)c(=O)c(C)c32)c1	23.3

Set 5
Host: mouse
Matrix: microsomes or S9
Concentration: 2 µM
Time: 0.5 h
SMILES	remaining compound
COc1cc2c(cc1NC(=O)C(C(C)=O)=C(SC)SC)oc1ccccc12	6.57%
O=C(Cc1cc(Br)ccc1F)OCCNC(=O)c1cccnc1	1.81%
Cc1c(C#N)c(NS(=O)(=O)CCCCF)n2ccccc12	10.9%
COc1ccc(OC)c(N2C(=O)c3cc4occc4n3CC2(C)C(=O)NC2CCCCCC2)c1 (stereo not shown)	0.302%
CC(C)=C1CC[C@H](C)[C@](C)(COc2ccc3ccc(=O)oc3c2)[C@@H]1CCC(N)=O	0%
CC(CCc1ccccc1)NC(=O)c1noc(-c2ccc[nH]c2=O)n1 (stereo not shown)	33.5%

Set 6
Target: DNA polymerase theta, ATPase domain (POLQ, Homo sapiens, UniProt O75417)
Chain of UniProt O75417 (whole entry, unmodified, looked up): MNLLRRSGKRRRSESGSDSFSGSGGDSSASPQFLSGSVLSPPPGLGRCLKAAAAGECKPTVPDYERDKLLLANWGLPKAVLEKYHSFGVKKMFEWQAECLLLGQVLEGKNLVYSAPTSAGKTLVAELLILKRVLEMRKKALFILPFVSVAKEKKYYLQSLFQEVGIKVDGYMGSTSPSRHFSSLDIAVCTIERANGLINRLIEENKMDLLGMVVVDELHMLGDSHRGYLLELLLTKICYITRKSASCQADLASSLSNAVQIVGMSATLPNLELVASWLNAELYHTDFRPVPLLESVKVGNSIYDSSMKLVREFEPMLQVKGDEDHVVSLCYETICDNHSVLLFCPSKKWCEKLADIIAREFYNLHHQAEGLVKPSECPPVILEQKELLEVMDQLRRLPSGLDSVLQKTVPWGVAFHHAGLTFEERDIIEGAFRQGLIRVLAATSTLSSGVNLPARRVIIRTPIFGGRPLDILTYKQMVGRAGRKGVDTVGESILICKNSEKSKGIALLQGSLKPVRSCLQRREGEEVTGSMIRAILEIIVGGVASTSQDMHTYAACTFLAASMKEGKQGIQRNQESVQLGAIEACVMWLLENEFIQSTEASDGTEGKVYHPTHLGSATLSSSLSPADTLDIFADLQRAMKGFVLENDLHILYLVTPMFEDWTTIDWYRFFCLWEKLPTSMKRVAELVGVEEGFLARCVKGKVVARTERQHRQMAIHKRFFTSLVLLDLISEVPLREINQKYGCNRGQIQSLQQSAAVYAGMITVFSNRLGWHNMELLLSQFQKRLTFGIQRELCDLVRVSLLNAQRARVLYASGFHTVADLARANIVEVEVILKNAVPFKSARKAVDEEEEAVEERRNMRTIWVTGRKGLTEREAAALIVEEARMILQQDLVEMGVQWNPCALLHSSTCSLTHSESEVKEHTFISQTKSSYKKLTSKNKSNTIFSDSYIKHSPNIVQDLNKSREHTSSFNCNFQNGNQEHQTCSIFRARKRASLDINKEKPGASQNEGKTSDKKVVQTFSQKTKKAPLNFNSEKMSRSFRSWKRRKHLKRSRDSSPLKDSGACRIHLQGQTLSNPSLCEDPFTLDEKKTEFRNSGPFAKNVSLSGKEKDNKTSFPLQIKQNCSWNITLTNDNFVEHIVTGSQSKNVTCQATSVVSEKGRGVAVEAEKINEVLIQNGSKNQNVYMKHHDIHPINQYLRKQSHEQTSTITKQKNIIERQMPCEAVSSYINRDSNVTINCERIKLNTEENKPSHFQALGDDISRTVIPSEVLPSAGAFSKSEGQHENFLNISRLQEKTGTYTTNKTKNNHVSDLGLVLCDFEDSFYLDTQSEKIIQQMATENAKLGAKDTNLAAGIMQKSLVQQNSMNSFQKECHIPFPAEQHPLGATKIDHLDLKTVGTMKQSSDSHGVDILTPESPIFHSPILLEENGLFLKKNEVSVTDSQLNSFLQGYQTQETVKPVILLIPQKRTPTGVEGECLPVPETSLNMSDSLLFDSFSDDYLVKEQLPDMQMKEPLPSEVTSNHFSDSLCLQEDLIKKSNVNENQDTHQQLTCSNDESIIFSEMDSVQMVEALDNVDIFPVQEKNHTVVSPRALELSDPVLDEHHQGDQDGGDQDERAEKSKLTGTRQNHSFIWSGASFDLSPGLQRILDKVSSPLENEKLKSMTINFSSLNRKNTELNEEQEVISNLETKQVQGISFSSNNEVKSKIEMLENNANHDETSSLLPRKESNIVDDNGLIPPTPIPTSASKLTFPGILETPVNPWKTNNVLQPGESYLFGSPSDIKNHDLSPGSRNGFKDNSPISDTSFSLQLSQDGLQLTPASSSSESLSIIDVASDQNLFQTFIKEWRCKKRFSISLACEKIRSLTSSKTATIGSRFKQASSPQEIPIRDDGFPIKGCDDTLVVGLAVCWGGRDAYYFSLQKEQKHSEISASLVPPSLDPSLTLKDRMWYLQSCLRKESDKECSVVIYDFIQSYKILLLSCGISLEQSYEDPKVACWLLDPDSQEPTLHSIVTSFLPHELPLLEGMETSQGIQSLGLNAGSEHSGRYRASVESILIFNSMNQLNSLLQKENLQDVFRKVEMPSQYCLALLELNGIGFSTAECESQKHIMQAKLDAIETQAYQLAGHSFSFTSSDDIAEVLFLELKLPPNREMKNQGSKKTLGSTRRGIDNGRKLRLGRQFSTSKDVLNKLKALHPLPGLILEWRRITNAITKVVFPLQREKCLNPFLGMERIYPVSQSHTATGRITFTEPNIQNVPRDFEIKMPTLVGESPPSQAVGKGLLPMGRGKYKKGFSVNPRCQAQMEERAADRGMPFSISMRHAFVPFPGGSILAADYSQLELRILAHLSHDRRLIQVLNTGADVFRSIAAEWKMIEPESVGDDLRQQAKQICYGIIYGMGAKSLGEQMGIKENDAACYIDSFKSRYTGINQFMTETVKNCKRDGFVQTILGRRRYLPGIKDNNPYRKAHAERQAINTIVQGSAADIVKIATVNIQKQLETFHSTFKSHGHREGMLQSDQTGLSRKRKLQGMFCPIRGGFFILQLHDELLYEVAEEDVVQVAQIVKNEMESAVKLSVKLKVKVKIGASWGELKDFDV
Read-out: enzyme activity
Action: inhibitor
Concentration: 77 µM
Reference: untreated
Structure (SMILES)	remaining activity
CCN(CC)CCOC(=O)C1(c2ccc([N+](=O)[O-])cc2)CCCC1	98.3%
Cc1cc2c(F)c(Oc3ncnn4cc(OC[C@@H](C)O)c(C)c34)ccc2[nH]1	103%
O=c1[nH]c(=O)n([C@H]2C[C@H](O)[C@@H](CO)O2)cc1F	97.2%
